Results from different studies.
Parts stem from different laboratories: compare values within a part only.

Block 1
Target: RNA binding protein fox-1 homolog 2, RRM domain, GST-SBP tag (RBFOX2, Homo sapiens, UniProt O43251-10, residues 100-194)
Method: RNA Bind-n-Seq
Molecule type: RNA
Medium: in vitro
Concentration: 365 nM
Notes: natural RNA segment, single round, ends assumed
Baseline: no-protein control
Reading: higher = stronger binding
Quantity: RBNS enrichment (R)
Residues (chain): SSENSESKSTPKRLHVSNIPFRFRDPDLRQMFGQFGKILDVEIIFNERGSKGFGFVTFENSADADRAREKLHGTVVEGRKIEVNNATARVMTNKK
Oligonucleotide = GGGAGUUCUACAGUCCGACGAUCUGCAAUAGCCCCCCUGCAACACUGCAAUAAUCCUUCAGUGUCUCCCCUGGGCUCAAUUCACUUCCUUAUUUGACAAAGUGGAGGUGAGACUUGUAUUCUUAAAAUUGGAGUGGAAUUCUCGGGUGCCAA; result = 0.276
Oligonucleotide = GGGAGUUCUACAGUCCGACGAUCUCUGCCUGAGACCCCAAGGUCCUCUCCUCCCUAGAGGGGAGGUGGAGCAGCAGUUGACUCCUGGUUCCCUCCCUAUUUCAGCCUGGAUGUGGGGCUGGUGGAGAUGCCUCUGGAAUUCUCGGGUGCCAA; result = 0.476
Oligonucleotide = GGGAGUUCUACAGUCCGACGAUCCCCACUUGUGUCUCACCCCCAUGUCAUUUCUCCUUCUCUGCCUUGGUUCCUCUUUCUCCAUCACUGGCUCCUUCUUUGAUGCUCUCUCCCCAUCUCAGGGUCAGACCAGCUGGAAUUCUCGGGUGCCAA; result = 0.952
Oligonucleotide = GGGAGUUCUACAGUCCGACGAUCUGCCUUCCUUGUUCUGGUGGAGCUGGGGUUUCUCUCCUCCCCAGUCCCACAACACUGCCAAAAAUCUGUGUAUGUGCCAUUGGGUGGGGCAGCCCCAAGCCUCCUGGGGAUGGAAUUCUCGGGUGCCAA; result = 0.796
Oligonucleotide = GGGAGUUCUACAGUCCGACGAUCUGCAUGCUGGUACAAUCUCUUAGAAACUCCUAAGAUGGUUUGGGAAAAUACAGUGCAAUUAGUGAUGGCUAAAUACACAGUGCUUGGGAUUCAGUCUGUGUAACAUUUUCUGGAAUUCUCGGGUGCCAA; result = 21.5
Oligonucleotide = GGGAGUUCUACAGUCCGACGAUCAGAGGUAGAAAACUUCAGUUGUUCCAGAUGAUGAUGUCAUGGUAUCGAGUAUUCUUUAUAUUCAGUUCCUAUUUAAGUCAUUUUUGUCAUGUCCGCCUAAUUGAUGUAGUUGGAAUUCUCGGGUGCCAA; result = 0.449
Oligonucleotide = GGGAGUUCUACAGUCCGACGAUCAGAGGGCUGAGGGCCCUGGAGAGCCGGGGAGGGAGAAGAUGGGAAGUCCUGUCGUGUUGCCCACCAGCCUCUCACAUUUCAUCCUGUCACGAUGCUCUACCCUCCCUCCCUGGAAUUCUCGGGUGCCAA; result = 0.617
Oligonucleotide = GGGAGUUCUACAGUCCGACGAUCACAUUAUACAGUAUCCUUUUCAGUCCUGCCAUAGAGAGGAACUAGAAUUCAGAUCUCAAUAUUAGGGAGAGUUCUCCUUUGAGCAACUCCUUUGCUUUCACACAGCAUAGUGGAAUUCUCGGGUGCCAA; result = 0.727
Oligonucleotide = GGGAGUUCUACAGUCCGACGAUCGAGUGUCCUGCCUGCCUUGGCUGGAGGGACACCUCUCCUGGGUGUGGAGACAGCUUGGUUCCCUUUCCCUAGCUCCCUGGUGGGUGAAUGCCACCUCCUGAGAUCCUCACUGGAAUUCUCGGGUGCCAA; result = 0.229
Oligonucleotide = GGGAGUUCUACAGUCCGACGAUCGUAGUUCAAGGAGAAACCUGUCCAAGUUGAUGCCAAAGAUUUACUGCCAACCUUUUCCCCCCAAGGGAAAAAAUAUACGCAAGUAUAAAGCAUCUACAUCAAUGUUUAUAUGGAAUUCUCGGGUGCCAA; result = 0.208
Oligonucleotide = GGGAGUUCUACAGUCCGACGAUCACAAAAACCCUAAAUAAAUAAAAGAAGUAAAAAAAAACCACACACACACAAGGAGCUGGAGAGAUGGCUCAGUGGUUACGAGCACUGACUGCUCUUCUAGAGAUCCUGAGUGGAAUUCUCGGGUGCCAA; result = 0.746
Oligonucleotide = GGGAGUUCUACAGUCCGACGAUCGAAGGAAAAAGAAAAAAGGGGCAAGGAGCCCCGCGGCGGCCUGGGCAGCGCCUGUGCAGACCUCCCUGCAGGCCGCACUGCCAACUGCUGCAUUUGUUGUGUUUUUUAGGUGGAAUUCUCGGGUGCCAA; result = 3.79

Block 2
Target: Histone acetyltransferase KAT6A, both winged helices, GST fusion (KAT6A, Homo sapiens, UniProt Q92794, residues 1-181)
Method: protein binding microarray
Molecule type: double-stranded DNA, one strand shown
Medium: in vitro
Concentration: not given
Notes: 8-mer, flanks averaged, mean of 2 arrays, mostly near background
Baseline: not given
Reading: higher = stronger binding
Quantity: E-score
Construct (chain): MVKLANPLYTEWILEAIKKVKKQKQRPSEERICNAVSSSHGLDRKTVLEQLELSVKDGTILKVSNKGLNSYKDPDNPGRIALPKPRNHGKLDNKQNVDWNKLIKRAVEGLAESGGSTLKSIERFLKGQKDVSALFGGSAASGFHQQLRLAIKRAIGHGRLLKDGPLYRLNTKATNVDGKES
Oligonucleotide = AATTTAAG; result = -0.127
Oligonucleotide = AGCGCACC; result = 0.213
Oligonucleotide = GAGGAATA; result = -0.148
Oligonucleotide = AATTCCCT; result = -0.276
Oligonucleotide = AAACGTCT; result = -0.0995
Oligonucleotide = CACATGCG; result = 0.182
Oligonucleotide = ATCTGCCG; result = 0.227
Oligonucleotide = CACTATAA; result = -0.0414
Oligonucleotide = CGTCCGTA; result = 0.254
Oligonucleotide = GCCAAGCC; result = 0.0334
Oligonucleotide = ACCACGTG; result = -0.0162
Oligonucleotide = GGAGGAAA; result = 0.000945
Oligonucleotide = CATGTATC; result = 0.0171
Oligonucleotide = AGCAAACA; result = -0.151
Oligonucleotide = GATAGGTA; result = -0.0646
Oligonucleotide = AACATAGC; result = -0.106
Oligonucleotide = AATCGCAT; result = -0.0488
Oligonucleotide = CGAGGCAG; result = -0.0375
Oligonucleotide = CCATATAC; result = -0.00263
Oligonucleotide = AGAGTCAT; result = -0.151
Oligonucleotide = CCGCTACA; result = 0.182
Oligonucleotide = ATGTACCG; result = 0.115
Oligonucleotide = AATCTTCG; result = 0.0375
Oligonucleotide = ATAACGCA; result = -0.00212
Oligonucleotide = AGTGAAGG; result = -0.25

Block 3
Target: Interferon regulatory factor 7, full length, phosphomimetic (IRF7, Homo sapiens, UniProt Q92985, residues 1-503, S101K/S471D/S472D/S475D/S476D/S477D/S483D/S484D/S487D)
Method: protein-binding microarray
Molecule type: double-stranded DNA, one strand shown
Medium: in vitro
Concentration: 250 nM
Notes: 60-bp whole probe
With: salmon DNA 0.4 mg/ml
Baseline: random background probes
Reading: higher = stronger binding
Quantity: log fluorescence
Shared flanks, not repeated: GCCTAGCAC … GTCTTGATTCGCTTGACGCTGCTG
Construct (chain): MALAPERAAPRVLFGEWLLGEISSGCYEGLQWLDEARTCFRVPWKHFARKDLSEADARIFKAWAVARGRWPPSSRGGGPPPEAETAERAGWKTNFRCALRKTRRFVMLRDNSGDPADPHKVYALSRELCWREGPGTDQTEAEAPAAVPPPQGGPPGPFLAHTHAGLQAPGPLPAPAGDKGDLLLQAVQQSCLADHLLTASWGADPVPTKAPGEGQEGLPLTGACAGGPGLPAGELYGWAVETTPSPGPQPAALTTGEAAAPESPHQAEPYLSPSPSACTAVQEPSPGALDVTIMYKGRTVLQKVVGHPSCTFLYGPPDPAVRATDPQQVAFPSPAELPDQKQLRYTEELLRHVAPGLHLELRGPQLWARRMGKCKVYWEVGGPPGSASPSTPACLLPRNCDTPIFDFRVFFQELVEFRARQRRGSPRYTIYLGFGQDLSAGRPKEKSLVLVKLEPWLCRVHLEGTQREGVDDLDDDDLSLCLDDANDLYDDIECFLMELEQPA
Oligonucleotide = TTAGGTATCGGGTCTCGGTTAGTGCTA; result = 2.36 z-score
Oligonucleotide = CTAGTAGCCTAAGGCTACCGGTGCTAG; result = 0.176 z-score
Oligonucleotide = TTAGGTCTTGGTCTCGGTTAGTGCTAG; result = 1.7 z-score
Oligonucleotide = TCATATTAGAGTCTCAAACTGTGCTAG; result = 0.635 z-score
Oligonucleotide = TCATTTTTGGTAATAGTACTGTGCTAG; result = 0.714 z-score
Oligonucleotide = GTGTTTCTCAGTTTATTTATGTGCTAG; result = 2.79 z-score
Oligonucleotide = TTACATATCAGTCTCGATTAGTGCTAG; result = 1.77 z-score
Oligonucleotide = GACGGTTTCGGTTTCGCGACGTGCTAG; result = 14.1 z-score
Oligonucleotide = TTAGATTCCAATTTCGATTAGTGCTAG; result = 3.09 z-score
Oligonucleotide = TTAGGTTTCGGGTTTAGGTTAGTGCTA; result = 11 z-score
Oligonucleotide = GACGATTCCAGTTTCGTGACGTGCTAG; result = 2.69 z-score
Oligonucleotide = TTAGATTTCGGGACTGGTTTAGTGCTA; result = 0.596 z-score
Oligonucleotide = ATGAAGTTCTTTTTTTCAAGGTGCTAG; result = 0.044 z-score
Oligonucleotide = TTAGGTATAGACACTGGGTTAGTGCTA; result = -0.33 z-score
Oligonucleotide = GACGATATCGGGTTTCGAGCCGTGCTA; result = 1.31 z-score
Oligonucleotide = TCATGATCCATTTTGGTACTGTGCTAG; result = 0.361 z-score
Oligonucleotide = TCATTTCTCTTTCCTTCACTGTGCTAG; result = 2.73 z-score
Oligonucleotide = TTAGCTATCCTTTTCCTTTAGTGCTAG; result = 0.515 z-score
Oligonucleotide = AACGATTTCAGTCTCGAGACGTGCTAG; result = 0.913 z-score
Oligonucleotide = GACGGACGGGGGTTTCGGGACGTGCTA; result = 2.74 z-score
Oligonucleotide = TTAGCTCTCAGACTGGATTAGTGCTAG; result = -0.19 z-score
Oligonucleotide = TTAGATTTCATTCTCGATTAGTGCTAG; result = 1.94 z-score
Oligonucleotide = TGTTATTAAAATTTAATGGGGTGCTAG; result = 0.458 z-score
Oligonucleotide = TTAGGTATAGGTCTCGGTTAGTGCTAG; result = 1.11 z-score
Oligonucleotide = TTGGGACTGGGTTTCGGTTAGTGCTAG; result = 5.95 z-score

Block 4
Target: Myc proto-oncogene protein, bHLH-zipper, MAX partner unstated (MYC, Homo sapiens, UniProt P01106, residues 368-449)
UniProt P01106, sequence (368-449, looked up): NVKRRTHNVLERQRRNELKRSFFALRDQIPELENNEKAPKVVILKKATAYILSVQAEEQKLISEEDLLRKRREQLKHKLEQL
Method: protein-binding microarray
Molecule type: double-stranded DNA, one strand shown
Medium: in vitro
Concentration: not given
Notes: k-mer, scored over probes, only values ≥0.25
Reading: higher = stronger binding
Quantity: E-score
Oligonucleotide = ATGCTTTC; result = 0.253
Oligonucleotide = AATCCACG; result = 0.289
Oligonucleotide = ACACGTTC; result = 0.316
Oligonucleotide = ACCATCTG; result = 0.266
Oligonucleotide = CGCGCCCA; result = 0.279
Oligonucleotide = AGCATGGA; result = 0.363
Oligonucleotide = ACGCATGG; result = 0.466
Oligonucleotide = ATGCGCAT; result = 0.378
Oligonucleotide = CATGGCGC; result = 0.358
Oligonucleotide = ACATATGG; result = 0.312
Oligonucleotide = GCCACGCC; result = 0.431
Oligonucleotide = CCGACCAC; result = 0.252
Oligonucleotide = TCGTGTCA; result = 0.34
Oligonucleotide = CATGGGGA; result = 0.366
Oligonucleotide = ACGTGCCC; result = 0.432
Oligonucleotide = AGGTGTGC; result = 0.33
Oligonucleotide = CACATGCA; result = 0.432
Oligonucleotide = CGTGGTTA; result = 0.389
Oligonucleotide = CGTGACGC; result = 0.299
Oligonucleotide = CACGAGCG; result = 0.333
Oligonucleotide = AACGAGGA; result = 0.257
Oligonucleotide = ACCTCCAT; result = 0.256
Oligonucleotide = CCACGACC; result = 0.272
Oligonucleotide = GCGAGGTA; result = 0.314
Oligonucleotide = GCGTGGAC; result = 0.413

Block 5
Target: Sal-like protein 4, full length isoform A (SALL4, Homo sapiens, UniProt Q9UJQ4, residues 1-1053)
UniProt Q9UJQ4, sequence (whole entry, looked up): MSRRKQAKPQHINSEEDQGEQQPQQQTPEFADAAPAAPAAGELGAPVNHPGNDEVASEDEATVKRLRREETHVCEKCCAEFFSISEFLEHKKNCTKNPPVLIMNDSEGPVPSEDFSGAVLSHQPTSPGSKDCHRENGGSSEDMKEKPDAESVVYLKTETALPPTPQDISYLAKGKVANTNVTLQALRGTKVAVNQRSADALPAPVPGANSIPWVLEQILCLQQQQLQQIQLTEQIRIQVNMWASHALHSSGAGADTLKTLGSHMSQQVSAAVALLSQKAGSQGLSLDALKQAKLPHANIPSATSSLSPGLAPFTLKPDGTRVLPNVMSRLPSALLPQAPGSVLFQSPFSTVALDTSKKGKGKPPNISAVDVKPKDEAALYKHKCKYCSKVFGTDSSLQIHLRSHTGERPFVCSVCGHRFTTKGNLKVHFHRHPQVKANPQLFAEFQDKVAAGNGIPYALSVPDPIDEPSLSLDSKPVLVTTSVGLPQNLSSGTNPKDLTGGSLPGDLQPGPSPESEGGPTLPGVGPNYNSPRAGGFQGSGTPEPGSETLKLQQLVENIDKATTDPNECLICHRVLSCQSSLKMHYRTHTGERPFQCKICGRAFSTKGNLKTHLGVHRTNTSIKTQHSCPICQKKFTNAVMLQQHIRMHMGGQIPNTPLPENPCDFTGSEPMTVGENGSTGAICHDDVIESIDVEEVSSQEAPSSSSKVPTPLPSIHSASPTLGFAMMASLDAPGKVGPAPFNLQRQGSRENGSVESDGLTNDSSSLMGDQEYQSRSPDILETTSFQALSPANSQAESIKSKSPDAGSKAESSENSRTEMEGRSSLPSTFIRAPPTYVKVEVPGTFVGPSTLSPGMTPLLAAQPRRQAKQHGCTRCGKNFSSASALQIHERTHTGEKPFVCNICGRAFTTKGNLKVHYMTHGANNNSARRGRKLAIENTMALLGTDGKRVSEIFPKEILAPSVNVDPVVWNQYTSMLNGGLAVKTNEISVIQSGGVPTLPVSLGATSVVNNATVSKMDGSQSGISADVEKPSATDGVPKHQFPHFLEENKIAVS
Method: universal PBM
Molecule type: double-stranded DNA, one strand shown
Medium: in vitro
Concentration: 600 nM
Notes: 8-mer, flanks averaged, mean of replicates
Reading: higher = stronger binding
Quantity: E-score
Oligonucleotide = AATGCTAC; result = 0.107
Oligonucleotide = CCGCCCAA; result = -0.238
Oligonucleotide = GATGACGA; result = 0.0537
Oligonucleotide = CTTACATC; result = 0.16
Oligonucleotide = CAACGTTA; result = 0.155
Oligonucleotide = AGGCGTCA; result = -0.16
Oligonucleotide = GAGACATC; result = -0.108
Oligonucleotide = AGTCCGAC; result = -0.19
Oligonucleotide = GATGAACA; result = 0.116
Oligonucleotide = TATGGAGA; result = 0.228
Oligonucleotide = AGAGCGAG; result = -0.189
Oligonucleotide = GCATTAAA; result = 0.275
Oligonucleotide = ATGATCAG; result = 0.157
Oligonucleotide = CTAATGAA; result = 0.169
Oligonucleotide = ATCGTAAC; result = 0.157
Oligonucleotide = CATAGACA; result = 0.0944
Oligonucleotide = CACGGAGA; result = -0.269
Oligonucleotide = CCCCATAA; result = 0.0433
